Assay results of several laboratories.
Numbers after ± are the reported error.

Compound | assay | system | setting | scale | endpoint | value
C=CC(=O)Nc1cc(Nc2nccc(-c3c[nH]c4ccccc34)n2)c(OC)cc1N(C)CCN(C)C | storage stability | human plasma | 30 d, -80 °C, HQC level |  | recovery | 97.8%
CN([O-])C(=O)CN1CCNCCN(CC(=O)N(C)[O-])CC1.[89Zr+4] |  | mouse, liver | intravenous, 4 h |  | tracer uptake | 0.19 %ID/g
C=C[C@]1(C)C[C@@H](OC(=O)CSc2ccc(NC(=O)c3ccco3)cc2)[C@]2(C)[C@H](C)CC[C@]3(CCC(=O)[C@H]32)[C@@H](C)[C@@H]1O |  | M. gallisepticum-infected chickens, plasma | intramuscular, 40 mg/kg single dose |  | central volume (V1/F) | 4.86 L/kg
CN1CCC[C@]1(C)/C=C/S(=O)(=O)NC(=O)Nc1c2c(cc3c1CC(O)C3)CCC2 (some centres unmarked) |  | human, plasma | oral, 50 mg twice daily of parent drug, day 14, metabolite of dosed drug |  | AUC(0-tau) | 55.1 µg·h/mL
CC(C)Cn1cc(Cc2cccc(OC(C)(C)C(=O)O)c2)c2cc(F)c(C(=O)N[C@@H](C)c3cccc(C(C)(C)C)c3)cc21 | metabolic stability | mouse, liver microsomes |  |  | half-life | > 1 h
COc1cccc(OC)c1-c1cc(C(=O)NC2(C(=O)O)C3CC4CC(C3)CC2C4)nn1-c1ccc(C(=O)N(C)CCCN(C)C(=O)[C@H](CCCCNC(=O)[C@H](CC(C)C)NC(=O)C2OC2C(=O)O)NC(=O)CN2CCN(CC(=O)[O-])CCN(CC(=O)[O-])CCN(CC(=O)[O-])CC2)cc1C(C)C.[177Lu+3] (mixture of isomers) |  | mouse, HT-29 xenograft | 24 h post injection, biodistribution | baseline: tumour over liver uptake | tumour-to-liver ratio | 3.25
CC1(C)OCCc2cc(C(=O)N3CCC(c4nc(-c5ccccc5)n[nH]4)CC3)ccc21 |  | human liver microsomes | pH 7.4, added: NADPH |  | intrinsic clearance | 267 mL/min/kg
C=C(NC(=O)c1csc(-c2nc3c(cc2O)-c2nc(cs2)C(=O)NC(C(C)O)C(=O)NC(=C(C)OC)c2nc(cs2)C(=O)NC2c4nc(cs4)C(=O)NC(COC(=O)c4c5c6c(cccc6n4O)COC(=O)C(OC4CC(C)(O)C(N(C)C)C(C)O4)C2OC5)c2nc-3cs2)n1)C(N)=O (centres unmarked) |  | cynomolgus monkey, male, plasma | intravenous infusion, 1 mg/kg single dose |  | MRT(0-last) | 1.02 h
O=C(Nc1cnccc1-c1ccc([18F])cc1)c1ccnc(NC(=O)C2CC2)c1 | ex vivo gamma counting | GSK-3β transgenic mice, early-stage, cortex | intravenous, 120 min, mean, P-gp inhibitor pretreatment, added: tariquidar 15 mg/kg iv |  | SUV | 0.24
O=C(O)/C=C\c1cc2ccoc2cc1O[C@@H]1O[C@H](CO)[C@@H](O)[C@H](O)[C@H]1O | post-procedure stability | rat plasma | 8 ng/mL, 3 h, room temperature |  | accuracy | 103%
CN1CCC[C@]1(C)/C=C/S(=O)(=O)NC(=O)Nc1c2c(cc3c1CCC3O)CCC2 (some centres unmarked) |  | human, plasma | oral, 12.5 mg twice daily of parent drug, day 14, metabolite of dosed drug |  | AUC(0-tau) | 113 µg·h/mL
CC(C)(F)CC(NC(c1ccc(-c2ccc(S(C)(=O)=O)cc2)cc1)C(F)(F)F)C(=O)NCC#CBr (centres unmarked) |  | PBS | 100 µM, 23 h, pH 7.45, 37 °C, added: GSH 5 mM |  | GSH adduct formation | 11%
N=C(N)NCCC[C@@H]1NC(=O)[C@H](CO)NC(=O)[C@@H](NC(=O)[C@H](CO)NC(=O)[C@H](CO)NC(=O)[C@H](Cc2c[nH]c3ccccc23)NC(=O)CNC(=O)[C@H](CO)NC(=O)[C@@H](N)Cc2c[nH]c3ccccc23)CSSC[C@@H](C(=O)NCC(=O)O)NC(=O)[C@H](CO)NC1=O |  | patients, plasma | intravenous, 10 mg/kg, thrice weekly, geometric mean |  | clearance | 946 L/h
COc1ccc(Nc2nc(Nc3ccc(OCCOCCOCC[18F])cc3)ncc2Br)cc1 |  | ICR mice, S180 tumour | intravenous, 370 kBq, 5 min | baseline: tumour over muscle | uptake ratio | 0.99
CCCCN1C(=O)c2cccc3c(NCCCCCN4CCOCC4)ccc(c23)C1=O |  | dichloromethane |  |  | absorption maximum | 429 nm
O=C(Nc1cnccc1-c1ccc([18F])nc1)c1ccnc(NC(=O)C2CC2)c1 | ex vivo gamma counting | GSK-3β transgenic mice, early-stage, liver | intravenous, 120 min, mean, P-gp inhibitor pretreatment, added: tariquidar 15 mg/kg iv |  | SUV | 6.08
CCCCN1C(=O)c2cccc3c(NCCCN4CCOCC4)ccc(c23)C1=O |  | dioxane |  |  | fluorescence lifetime | 9.9 ns
CN1CCC[C@]1(C)/C=C/S(=O)(=O)NC(=O)Nc1c2c(cc3c1CCC3)CC=C2 |  | human, plasma | oral, 50 mg twice daily of parent drug, day 1, metabolite of dosed drug |  | AUC(0-tau) | 139 µg·h/mL
CC(C)(O)c1ncc([S@](N)(=O)=NC(=O)Nc2c3c(cc4c2CCC4)CCC3)s1 |  | healthy human subjects | oral, 100 mg, all arms total |  | subjects with gastrointestinal adverse events | 50%

Compound | assay | system | setting | scale | endpoint | value
CCCC[C@H](NC(=O)COCCOCCNC(=O)CN1CCN(CC(=O)O)CCN(CC(=O)O)CC1)C(=O)N[C@H]1CC(=O)NCCCC[C@@H](C(N)=O)NC(=O)[C@H](Cc2c[nH]c3ccccc23)NC(=O)[C@H](CCCNC(=N)N)NC(=O)[C@@H](Cc2ccccc2)NC(=O)[C@H](Cc2c[nH]cn2)NC1=O [fluorine-18 labelled] |  | C57 mice, B16/F10 melanoma, urine | intravenous, 0.37 MBq, 2 h |  | urinary excretion | 83.4 ± 2.37%
COc1ccccc1NC(=O)OC1C(C)C(OC)C=COC2(C)Oc3c(C)c(O)c4c(c3C2=O)C2=NC3(CCN(CC(C)C)CC3)NC2=C(NC(=O)C(C)=CC=CC(C)C(O)C(C)C(O)C1C)C4=O (centres unmarked) |  | CD-1 mouse female, plasma | intravenous, 5 mg/kg |  | clearance | 3.67 mL/min/kg
CN[C@H](CC(C)C)C(=O)N[C@H]1C(=O)N[C@@H](CC(N)=O)C(=O)N[C@H]2C(=N)N[C@H]3C(=O)N[C@H](C(=O)N[C@H](C(=O)NCCC[N+](C)(C)C)c4cc(O)cc(O)c4-c4cc3ccc4O)[C@H](O)c3ccc(c(Cl)c3)Oc3cc2cc(c3O[C@@H]2O[C@H](CO)[C@@H](O)[C@H](O)[C@H]2O[C@H]2C[C@](C)(NCc3ccc(-c4ccc(Cl)cc4)cc3)[C@H](O)[C@H](C)O2)Oc2ccc(cc2Cl)[C@H]1O |  | mouse | intravenous, 50 mg/kg |  | clearance | 0.6 mL/min/kg
CCCCCCCCCCCCCCCOC(=O)/C=C/c1cccc(O)c1 |  | red blood cells | concentration not given | baseline: Triton X-100 | hemolysis | 0.54%
CCCCN1C(=O)c2cccc3c(NCCN4CCOCC4)ccc(c23)C1=O |  | water | pH 6.0 |  | absorption maximum | 441 nm
COc1cccc(OC)c1-c1cc(C(=O)NC2(C(=O)O)C3CC4CC(C3)CC2C4)nn1-c1ccc(C(=O)NCCNC(=O)[C@H](CCCCNC(=O)[C@H](CC(C)C)NC(=O)C2OC2C(=O)O)NC(=O)CN2CCN(CC(=O)[O-])CCN(CC(=O)[O-])CCN(CC(=O)[O-])CC2)cc1C(C)C.[177Lu+3] (mixture of isomers) |  | mouse, HT-29 xenograft | 4 h post injection, biodistribution | baseline: tumour over liver uptake | tumour-to-liver ratio | 8.92
CCCCN1C(=O)c2cccc3c(NCCCCCCCCCCN4CCOCC4)ccc(c23)C1=O |  | ethylene glycol |  |  | absorption maximum | 449 nm
Cc1ccc(OCC(=O)N(Cc2cccs2)c2ccn[nH]2)cc1 |  | monkey plasma | 750 ng/mL, 0.5 h, 37 °C, unit not given | baseline: time zero | remaining compound | 113
COCC1CN(C2CCN(c3cc(OC)c(Nc4ncc(Br)c(Nc5ccc6c(c5P(C)(C)=O)OCCO6)n4)cc3C)CC2)C1 | first-in-human trial | human | oral, 10 mg once daily | treatment-related leading to dose reduction | adverse events | 0%
[123I]c1ccc2nc(-c3ccc(-n4ccnn4)nc3)cn2c1 |  | male Wistar rat, bone | intravenous, 4 MBq, 1 h |  | tracer uptake | 0.065 %ID/g
CC(=O)N([O-])CCCCCNC(=O)CCC(=O)N([O-])CCCCCNC(=O)CCC(=O)N([O-])CCCCCN.[89Zr+4] |  | PBS | 5 days, pH 7, 37 °C |  | intact compound | 95.6 ± 4.2%
CCN(CC)c1ccc2cc(C(=O)ON3C(=O)CCC3=O)c(=O)oc2c1 | chemical stability, HPLC-MS | borate buffered saline | pH 10.2, no N-acetyl-lysine |  | degradation rate constant | 8.4 h⁻¹
CCCCN1C(=O)c2cccc3c(NCCCCN4CCOCC4)ccc(c23)C1=O |  | ethyl acetate |  |  | absorption maximum | 428 nm
CC(C)C[C@H](NC(=O)[C@H](CCCNC(=N)N)NC(=O)[C@H](Cc1ccccc1)NC(=O)[C@H](Cc1ccccc1)NC(=O)[C@@H](NC(=O)[C@H](COP(=O)(O)O)NC(=O)[C@@H](N)COP(=O)(O)O)[C@@H](C)O)C(=O)N[C@@H](Cc1ccccc1)C(=O)N[C@@H](CC(N)=O)C(=O)N[C@@H](CCCNC(=N)N)C(=O)N[C@@H](C)C(=O)N[C@@H](CCCCN)C(=O)N[C@@H](CCCNC(=N)N)C(=O)N[C@@H](Cc1c[nH]cn1)C(=O)N[C@@H](Cc1c[nH]cn1)C(=O)NCC(=O)N[C@@H](Cc1ccc(O)cc1)C(=O)N[C@@H](CCCCN)C(=O)N[C@@H](CCCNC(=N)N)C(=O)N[C@@H](CCCCN)C(=O)N[C@@H](Cc1ccccc1)C(=O)N[C@@H](Cc1c[nH]cn1)C(=O)O | HPLC-UV | human saliva | 2 h, 37 °C, added: initial 1 mg/mL |  | peptide concentration | 0.95 mg/mL
CC(C(=O)O)n1nc(Cn2cc3cc(OCC[18F])c(Cl)cc3n2)c2ccccc2c1=O (racemic) |  | rat, brain | 5 min |  | tracer uptake | 0.04 %ID/g
CC[C@H](C)[C@@H]1NC(=O)[C@H](Cc2ccc(O)cc2)NC(=O)CCCSC[C@@H](C(=O)N(CC(=O)N[C@@H](CC(C)C)C(=O)NCC(N)=O)Cc2ccc(F)cc2)NC(=O)[C@H](CC(N)=O)NC(=O)[C@H](CCC(N)=O)NC1=O |  | healthy human females, plasma | intranasal, 100 µg single dose |  | Cmax | 0.051 ng/mL
CC(C)(C)[C@H](NC(=O)C(F)F)C(=O)N1C[C@H]2[C@@H]([C@H]1C(=O)N[C@H](C#N)C[C@@H]1CCCNC1=O)C2(C)C |  | mouse liver microsomes | microsomes 0.5 mg/mL |  | intrinsic clearance | 83.7 µL/min/mg
C/C(N)=N/C(=N\S(=O)(=O)c1ccc(C(F)(F)F)cc1)N1C[C@H](c2ccccc2)C(c2ccc(Cl)cc2)=N1 |  | beagle dog, plasma | oral, 24 mg/kg |  | half-life | 10.7 h
CC[C@H](C)[C@@H](C(=O)N[C@@H](CC(C)C)C(=O)N[C@@H](CO)C(=O)N[C@@H](CO)C(=O)N[C@H](C(=O)N[C@@H](CCC(=O)O)C(=O)N[C@H](C(=O)NCC(=O)N[C@@H](CO)C(=O)N[C@@H](CC(N)=O)C(=O)N[C@H](C(=O)N1C[C@H](O)C[C@H]1C(N)=O)[C@@H](C)O)C(C)C)[C@@H](C)O)N(C)C(=O)[C@H](C)NC(=O)CN(C)C(=O)[C@H](Cc1ccccc1)NC(=O)[C@H](CO)NC(=O)[C@H](CO)NC(=O)[C@H](CCCNC(=N)N)NC(=O)[C@H](CCC(N)=O)NC(=O)[C@H](CC(C)C)NC(=O)[C@H](Cc1ccccc1)NC(=O)[C@H](Cc1c[nH]cn1)NC(=O)[C@H](C)NC(=O)[C@H](CC(C)C)NC(=O)[C@H](CCCNC(=N)N)NC(=O)[C@H](CCC(=O)O)NC(=O)[C@@H](NC(=O)[C@H](C)NC(=O)[C@@H]1CSSC[C@H](NC(=O)[C@H](CCCNC(=N)N)NC(=O)CC[C@H](NC(=O)CCCCCCCCCCCCCCCCCCC(=O)O)C(=O)O)C(=O)NCC(=O)N[C@@H]([C@@H](C)O)C(=O)N[C@@H](C)C(=O)N[C@@H]([C@@H](C)O)C(=O)N1)[C@@H](C)O | RP-HPLC | aqueous solution | 7 days, pH 6, 40 °C |  | degradation | 7%

Repeated from above:
Compound | assay | system | setting | scale | endpoint | value
COCC1CN(C2CCN(c3cc(OC)c(Nc4ncc(Br)c(Nc5ccc6c(c5P(C)(C)=O)OCCO6)n4)cc3C)CC2)C1 | first-in-human trial | human | oral, 10 mg once daily | treatment-related leading to dose reduction | adverse events | 0%
[123I]c1ccc2nc(-c3ccc(-n4ccnn4)nc3)cn2c1 |  | male Wistar rat, bone | intravenous, 4 MBq, 1 h |  | tracer uptake | 0.065 %ID/g
CC(=O)N([O-])CCCCCNC(=O)CCC(=O)N([O-])CCCCCNC(=O)CCC(=O)N([O-])CCCCCN.[89Zr+4] |  | PBS | 5 days, pH 7, 37 °C |  | intact compound | 95.6 ± 4.2%
CCN(CC)c1ccc2cc(C(=O)ON3C(=O)CCC3=O)c(=O)oc2c1 | chemical stability, HPLC-MS | borate buffered saline | pH 10.2, no N-acetyl-lysine |  | degradation rate constant | 8.4 h⁻¹
